# Measurements gathered from unrelated publications.
# Compare with care: the assays were run in different laboratories. ± marks the error that the study gave.
Structure (SMILES),organism,test,test system,setting,scale,measurement,result
CC(C)n1ncc2c(C(=O)NCC3(C)CNC3)cc(C3CC3)nc21,Enterovirus D68,viral replication,"RD, recombinant wild-type US/MO/14-18947",0.3 µM,reference: untreated,plaque area,0%
COc1ccc(OCCCO)cc1-c1cn2cc(-c3nnc(NCCCCc4ccccc4)o3)ccc2n1,Plasmodium falciparum,"schizont egress, Nluc release",Hyp1-Nluc,"10 x growth EC50, 4 h",,inhibition,80.3%
Nc1nc(-c2ccccc2)nc2[nH]nc(Nc3ccc(C(F)(F)F)cc3)c12,coxsackievirus B3,,"31-1-93, NMRI mice, CVB3 chronic myocarditis","oral, 100 mg/kg twice daily, day 7, dosed days 1 to 7, score scale 0 to 7",direction not given,clinical score,0.22
CC(=O)O[C@@H]1C[C@H]2C(C)(C)C(=O)C=C[C@]2(C)[C@H]2CC[C@@]3(C)[C@H](c4ccoc4)OC(=O)[C@H]4O[C@]43[C@@]21C,Drosophila melanogaster,fluorescence,,"liquid food, 40 µg/mL, first instar larvae",reference: solvent,fluorescein ingestion,-24.2%
Cn1cc(-c2cnc3[nH]cc(-c4cn(Cc5cccc(F)c5F)nn4)c3c2)cn1,Plasmodium falciparum,nanoluciferase readout,3D7 Hyp1-Nluc,"20 µM, 72 h",reference: DMSO,parasite growth,0.403%
CNC(=O)c1cc(Oc2ccc(NC(=O)Nc3ccc4c(c3)OCO4)cc2)ccn1.O=C(O)C(F)(F)F,Drosophila melanogaster,,ptc>dRet M955T,"in food, concentration not given, 25 °C",,rescue of viability,inactive
COCC(=O)N1CCC[C@H](C(=O)NCc2nc(-c3cncnc3)cs2)C1,Plasmodium falciparum,SYBR Green growth,"asexual blood-stage parasites, 3D7",72 h,,EC50,640 ± 260 nM
O=C(NCCN1CCCC1)c1cc(-c2ccc(CN3CCOCC3)cc2)nc2ccc(F)cc12,Plasmodium berghei,checkerboard model fit,HepG2 spheroids,,,maximum killing rate,0.116 h⁻¹
CC(=O)NC[C@H]1CN(c2ccc(N3CCOCC3)c(F)c2)C(=O)O1,Staphylococcus epidermidis,,"methicillin-resistant, 10 isolates",serum 0%,,MIC50,1 µg/mL
COc1cc2c(cc1OC)[C@@H]1C(=O)c3ccc4c(c3O[C@@H]1CO2)C=CC(C)(C)O4,human adenovirus C5,reporter virus,A549,"concentration not given, 72 h, highest dose, monotreatment",reference: untreated control,viral progeny production,30%
CN(C)CCOC(c1ccccc1)c1ccccc1,Drosophila melanogaster,fluorescence,,"liquid food, 40 µg/mL, first instar larvae",reference: solvent,fluorescein ingestion,12.3%
C[C@@H]1[C@H](O)[C@@H](C)/C=C/C=C/C=C/C=C/C=C/C=C/C=C/[C@H](O[C@@H]2O[C@H](C)[C@@H](O)[C@H](N)[C@@H]2O)C[C@@H]2O[C@](O)(C[C@@H](O)C[C@@H](O)[C@H](O)CC[C@@H](O)C[C@@H](O)CC(=O)O[C@H]1C)C[C@H](O)[C@H]2C(=O)O,Leishmania major,,promastigotes,"48 h, unit not given",reference: compound minus Glu,anti-leishmanial effect difference,10.2
CN1CCN(CCCN2c3ccccc3Sc3ccc(C(F)(F)F)cc32)CC1,Drosophila melanogaster,fluorescence,,"liquid food, 40 µg/mL, first instar larvae",reference: solvent,fluorescein ingestion,-15.8%
CC1(C)S[C@@H]2[C@H](NC(=O)[C@H](N)c3ccc(O)cc3)C(=O)N2[C@H]1C(=O)O,Serratia marcescens,,MTCC 4301,10 µg/mL,,zone of inhibition,30 mm
COc1cc(C(=O)N(C)C)ccc1-c1cc2nccc(-c3ccc4ccncc4c3)c2o1,Plasmodium falciparum,nanoluciferase readout,3D7 Hyp1-Nluc,"20 µM, 72 h",reference: DMSO,parasite growth,0.1%
COCC(=O)N1CCC[C@H](C(=O)NCc2nc(-c3ccc(C#N)cc3)cs2)C1,Plasmodium falciparum,SYBR Green growth,"asexual blood-stage parasites, 3D7",72 h,,EC50,34 ± 6.4 nM
COC(=O)[C@@H](NCc1cc2ccccc2nc1OCc1ccccc1)C(C)C,Pseudomonas aeruginosa,,,"128 µg/mL, together with: pentamidine 50 µM",reference: control,growth,91.9%
C=CC(=O)ON=C1C=CC(=C(C#N)c2ccccc2)C=C1,Clavispora lusitaniae,broth dilution,ATCC 34449,"48 h, 37 °C",,MFC,64 µg/mL
CNS(=O)(=O)c1ccccc1Nc1nc(Nc2ccc(N3CCOCC3)cc2OC)ncc1Br,Plasmodium falciparum,LDH readout,3D7 Hyp1-Nluc,"2 µM, 72 h",reference: DMSO,parasite growth,14.2%

# Repeated from above:
Structure (SMILES),organism,test,test system,setting,scale,measurement,result
CNS(=O)(=O)c1ccccc1Nc1nc(Nc2ccc(N3CCOCC3)cc2OC)ncc1Br,Plasmodium falciparum,LDH readout,3D7 Hyp1-Nluc,"2 µM, 72 h",reference: DMSO,parasite growth,14.2%
